Published values pooled from the literature.
Protocols differ between the studies behind these lines. Converted amounts (≈) assume the structure as drawn.
Ubiquitin carboxyl-terminal hydrolase 39 ZnF-UBD domain: Ubiquitin carboxyl-terminal hydrolase 39, ZnF-UBD domain (Homo sapiens, UniProt Q53GS9)
Chain of UniProt Q53GS9 (whole entry, looked up): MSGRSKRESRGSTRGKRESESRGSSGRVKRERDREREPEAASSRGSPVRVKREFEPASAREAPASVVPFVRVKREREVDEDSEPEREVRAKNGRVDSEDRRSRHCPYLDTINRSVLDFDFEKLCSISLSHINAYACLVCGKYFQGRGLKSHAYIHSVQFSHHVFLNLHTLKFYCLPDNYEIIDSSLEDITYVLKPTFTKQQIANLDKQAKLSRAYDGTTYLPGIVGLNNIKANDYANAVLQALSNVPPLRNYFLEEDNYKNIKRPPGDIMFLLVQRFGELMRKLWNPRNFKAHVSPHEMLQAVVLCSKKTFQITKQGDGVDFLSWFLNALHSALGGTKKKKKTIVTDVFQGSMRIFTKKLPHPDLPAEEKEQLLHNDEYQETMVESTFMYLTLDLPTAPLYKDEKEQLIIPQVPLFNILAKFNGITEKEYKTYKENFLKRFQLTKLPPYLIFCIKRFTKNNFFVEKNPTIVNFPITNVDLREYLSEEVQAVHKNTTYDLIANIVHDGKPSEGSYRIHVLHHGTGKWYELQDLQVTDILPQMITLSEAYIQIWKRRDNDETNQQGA

The MIC50 of `CN[C@H](CC(C)C)C(=O)N[C@H]1C(=O)N[C@@H](CC(N)=O)C(=O)N[C@H]2C(=O)N[C@H]3C(=O)N[C@H](C(=O)N[C@H](C(=O)O)c4cc(O)cc(O)c4-c4cc3ccc4O)[C@H](O)c3ccc(c(Cl)c3)Oc3cc2cc(c3O[C@@H]2O[C@H](CO)[C@@H](O)[C@H](O)[C@H]2O[C@H]2C[C@](C)(N)[C@H](O)[C@H](C)O2)Oc2ccc(cc2Cl)[C@H]1O` is reported as 4 µg/mL (≈ 2.76 µM) (Staphylococcus aureus; MRSA, 10 isolates; serum 75%).
`Cc1cc2c(F)c(Oc3ncnn4cc(OC[C@@H](C)OC(=O)[C@H](C)N)c(C)c34)ccc2[nH]1` has an inhibition of 37.9% (NLRP3 inflammasome (mouse); mouse BMDM; 10 µM).
Under “z-scored log2 fold change”, `O=C(O)c1ccccc1` is recorded as 0.203 (binding, equilibrium dialysis LC-MS; 5 µM, thermostabilized A2AR-BRIL construct; reference: no-protein control, direction not given).
`c1ccc(-c2n[nH]cc2-c2ccnc3ccccc23)nc1`: “log2 fold change” 1.33 (orf19.3456 kinase Candida albicans; MIB/MS competition binding; Candida albicans cell lysate; 100 nM; reference: DMSO, lower = stronger binding).
With `Nc1nc(-c2ccccc2)nc2[nH]nc(Nc3ccc(C(F)(F)F)cc3)c12` the clinical score was 0 (coxsackievirus B3; NMRI mouse, CVB3 chronic myocarditis; oral, 100 mg/kg twice daily, day 0-6, day 0; direction not given).
Under “z-scored log2 fold change”, `N=C(N)NCCC[C@H](N)C(=O)O` is recorded as 0.441 (binding, equilibrium dialysis LC-MS; 5 µM, thermostabilized A2AR-BRIL construct; reference: no-protein control, direction not given).
For `O=C(O)CN1Cc2ccccc2C1=O`, the Kd was over 1 mM (Ubiquitin carboxyl-terminal hydrolase 39 ZnF-UBD domain).
`Cc1cc2c(F)c(Oc3ncnn4cc(OC[C@@H](C)O)c(C)c34)ccc2[nH]1` has an inhibition of 51.3% (NLRP3 inflammasome (mouse); mouse BMDM; 10 µM).
For `C[S+]([O-])c1ccc(-c2nc(-c3ccncc3)c(-c3ccc(F)cc3)[nH]2)cc1` (stereo not drawn), the cell index was 103% (iCell Cardiomyocytes (hiPSC-derived); cellular impedance; concentration not given, 24 h; reference: control).
`N[C@H](CC(=O)O)C(=O)O`: “z-scored log2 fold change” 0.302 (binding, equilibrium dialysis LC-MS; 5 µM, thermostabilized A2AR-BRIL construct; reference: no-protein control, direction not given).
`CC(C)c1ccc2oc3nc(N)c(C(=O)O)cc3c(=O)c2c1` has an inhibition of 35.5% (NLRP3 inflammasome (mouse); mouse BMDM; 10 µM).
`Oc1ccccc1-c1n[nH]cc1-c1ccnc2ccccc12` — result for “log2 fold change”: 0.04 (NPR1 (Candida albicans); kinase binding, MIB/MS competition; Candida albicans lysate; 10 µM; reference: DMSO).
With `CNC(=O)c1cc(Oc2ccc(NC(=O)Nc3ccc(Cl)c(C(F)(F)F)c3)cc2)ccn1` the cell index was 96.8% (iCell Cardiomyocytes (hiPSC-derived); cellular impedance; concentration not given, 24 h; reference: control).
With `NC(=O)c1cnc2[nH]ccc2c1N[C@@H]1[C@@H]2CC3C[C@H]1C[C@@](O)(C3)C2` the percent change was 0.8% (CD8+ memory T cells, flow cytometry; Caucasian humans, peripheral blood; 200 mg single dose; reference: baseline).
For `Cc1ccc(-n2nc(C(C)(C)C)cc2NC(=O)Nc2ccc(OCCN3CCOCC3)c3ccccc23)cc1`, the cell index was 101% (iCell Cardiomyocytes (hiPSC-derived); cellular impedance; concentration not given, 24 h; reference: control).
Under “z-scored log2 fold change”, `N[C@@H](CS(=O)(=O)O)C(=O)O` is recorded as -0.22 (binding, equilibrium dialysis LC-MS; 5 µM, thermostabilized A2AR-BRIL construct; reference: no-protein control, direction not given).
The inhibition of `CNC(=O)c1cccc(-c2ccc3c(N4CCOC[C@@H]4C)nc(N4CCOC[C@@H]4C)nc3n2)c1` is reported as 20.8% (NLRP3 inflammasome (mouse); mouse BMDM; 10 µM).
With `O=C(/C=C/C=C/C=C/C1CCCCC1)NC1=C[C@@](O)(/C=C/C=C/C=C/C(=O)NC2=C(O)CCC2=O)[C@@H]2O[C@@H]2C1=O` the GI50 was 11.9 µM (GP2d; cell growth, CellTiter-Glo; 78 h).
`CNS(=O)(=O)C[C@H]1CC[C@H](N(C)c2[nH]cnc3nccc2-3)CC1` gave an inhibition of 81.1% (NLRP3 inflammasome (mouse); mouse BMDM; 10 µM).
`Cn1cc(-c2ccc(-c3cncc(Cl)c3N3CCC4(CCNC4=O)CC3)cc2)cn1`: “log2 fold change” 2.22 (COLO 205; gene expression, microarray, item: VLDLR mRNA; concentration not given, 2 h; reference: untreated cells).
With `Cc1[nH]c(/C=C2\C(=O)Nc3ccc(F)cc32)c(C)c1C(=O)NCCN1CCCC1` the inhibition was 92.6% (NLRP3 inflammasome (mouse); mouse BMDM; 10 µM).
The Kd of `O=C(O)CCC(=O)c1ccc(S(=O)(=O)N2CCCC2)cc1` is reported as over 1 mM (Ubiquitin carboxyl-terminal hydrolase 39 ZnF-UBD domain).
`c1coc(-c2n[nH]cc2-c2ccnc3ccccc23)c1`: “log2 fold change” -0.06 (orf19.6492 Candida albicans; kinase binding, MIB/MS competition; Candida albicans lysate; 10 µM; reference: DMSO).
For `CN(C)c1ncnc2nc[nH]c12`, “z-scored log2 fold change” read 2.64 (binding, equilibrium dialysis LC-MS; 5 µM, thermostabilized A2AR-BRIL construct; reference: no-protein control, direction not given).
`CCCS(=O)(=O)Nc1ccc(F)c(C(=O)c2c[nH]c3ncc(Cl)cc23)c1F` gave a cell index of 97.8% (iCell Cardiomyocytes (hiPSC-derived); cellular impedance; concentration not given, 24 h; reference: control).
`C[C@H](Oc1ccc(Br)cc1-c1ccon1)C(=O)O` — result for “difference from placebo”: 1.98% (first response peak; human, tibialis anterior muscle; 200 mg, 30-15 Hz, SAD).
`Cc1cc2c(F)c(Oc3ncnn4cc(OC[C@@H](C)O)c(C)c34)ccc2[nH]1` has a cell index of 102% (iCell Cardiomyocytes (hiPSC-derived); cellular impedance; concentration not given, 24 h; reference: control).
Under “z-scored log2 fold change”, `Cc1ncc(CO)c(C(=O)O)c1O` is recorded as 0.359 (binding, equilibrium dialysis LC-MS; 5 µM, thermostabilized A2AR-BRIL construct; reference: no-protein control, direction not given).
`O=C(Nc1ccc([N+](=O)[O-])cc1Cl)c1cc(Cl)ccc1O` gave a selectivity index of over 27.8 (human alphaherpesvirus 1; K26 GFP, 3D skin equivalent, submerged; reference: CC50 over IC50).
Under “z-scored log2 fold change”, `O=Cc1cc(O)ccc1O` is recorded as 0.365 (binding, equilibrium dialysis LC-MS; 5 µM, thermostabilized A2AR-BRIL construct; reference: no-protein control, direction not given).
For `COc1ccc(-c2nc(N3CCOCC3)c3sc(CN(C)c4ncc(C(=O)NO)cn4)cc3n2)cn1`, the IC50 was over 60000 nM (human alphaherpesvirus 1; live-cell GFP imaging; primary human fibroblasts, K26 GFP).
With `C=CC(=O)Nc1cc2c(Nc3ccc(F)c(Cl)c3)ncnc2cc1OCCCN1CCOCC1` the inhibition was 86.2% (NLRP3 inflammasome (mouse); mouse BMDM; 10 µM).
`C[C@H](O)CC(=O)O` — result for “z-scored log2 fold change”: -0.0853 (binding, equilibrium dialysis LC-MS; 5 µM, thermostabilized A2AR-BRIL construct; reference: no-protein control, direction not given).
`Cc1nc(Nc2ncc(C(=O)Nc3c(C)cccc3Cl)s2)cc(N2CCN(CCO)CC2)n1` gave a beat rate of 75.5% (iCell Cardiomyocytes (hiPSC-derived); xCELLigence Cardio impedance; concentration not given, 2 h; reference: control).
`OC(CCN1CCCCC1)(c1ccccc1)C1CC2C=CC1C2` (stereo not drawn): “change in EEG Beta2-power Pz-O1” -11.1% (resting-state EEG; healthy elderly humans; oral, 4 mg, eyes closed, LS mean; reference: baseline).
The beat amplitude of `O=C(O)c1ccc(Nc2ncc3c(n2)-c2ccc(Cl)cc2C(c2c(F)cccc2F)=NC3)cc1` is reported as 100% (iCell Cardiomyocytes (hiPSC-derived); xCELLigence Cardio impedance; concentration not given, 2 h; reference: control).
With `Cc1nc(N(C)C(=O)Cc2ccc(-c3ccccn3)cc2)sc1S(N)(=O)=O` the IC50 was 150 nM (human alphaherpesvirus 1; live-cell GFP imaging; primary human fibroblasts, K26 GFP).
The cell index of `CC1(C)CNc2cc(NC(=O)c3cccnc3NCc3ccncc3)ccc21` is reported as 102% (iCell Cardiomyocytes (hiPSC-derived); cellular impedance; concentration not given, 24 h; reference: control).
`O=C(/C=C\n1cnc(-c2cc(C(F)(F)F)cc(C(F)(F)F)c2)n1)NNc1ccccn1` has a selectivity index of over 66.7 (human alphaherpesvirus 1; K26 GFP, 3D skin equivalent, air-liquid; reference: CC50 over IC50).
The sarcomere length of `CC(C)NCC(O)c1ccc(O)c(O)c1` (stereo not drawn) is reported as 1.59 µm (ventricular cardiomyocytes, C57BL/6 mouse; dose not given, 0.144 s).
`Cc1cccc(C)c1N(CC(=O)Nc1ccc(-c2ncon2)cc1)C(=O)C1CCS(=O)(=O)CC1` gave a selectivity index of over 600 (human alphaherpesvirus 1; primary human fibroblasts, K26 GFP; reference: CC50 over IC50).
For `C[C@H]1CN(C2COC2)CCN1c1ccc(Nc2cc(-c3ccnc(N4CCn5c(cc6c5CC(C)(C)C6)C4=O)c3CO)cn(C)c2=O)nc1`, the inhibition was -44.3% (NLRP3 inflammasome (mouse); mouse BMDM; 10 µM).

For quick reference, copied from above:
Under “z-scored log2 fold change”, `O=Cc1cc(O)ccc1O` is recorded as 0.365 (binding, equilibrium dialysis LC-MS; 5 µM, thermostabilized A2AR-BRIL construct; reference: no-protein control, direction not given).
For `COc1ccc(-c2nc(N3CCOCC3)c3sc(CN(C)c4ncc(C(=O)NO)cn4)cc3n2)cn1`, the IC50 was over 60000 nM (human alphaherpesvirus 1; live-cell GFP imaging; primary human fibroblasts, K26 GFP).
With `C=CC(=O)Nc1cc2c(Nc3ccc(F)c(Cl)c3)ncnc2cc1OCCCN1CCOCC1` the inhibition was 86.2% (NLRP3 inflammasome (mouse); mouse BMDM; 10 µM).
`C[C@H](O)CC(=O)O` — result for “z-scored log2 fold change”: -0.0853 (binding, equilibrium dialysis LC-MS; 5 µM, thermostabilized A2AR-BRIL construct; reference: no-protein control, direction not given).
